Measured values collected from several papers.
Every numbered part comes from another study and shows a few of its results, in no order.
Sequence of UniProt Q56UN5 (whole entry, looked up): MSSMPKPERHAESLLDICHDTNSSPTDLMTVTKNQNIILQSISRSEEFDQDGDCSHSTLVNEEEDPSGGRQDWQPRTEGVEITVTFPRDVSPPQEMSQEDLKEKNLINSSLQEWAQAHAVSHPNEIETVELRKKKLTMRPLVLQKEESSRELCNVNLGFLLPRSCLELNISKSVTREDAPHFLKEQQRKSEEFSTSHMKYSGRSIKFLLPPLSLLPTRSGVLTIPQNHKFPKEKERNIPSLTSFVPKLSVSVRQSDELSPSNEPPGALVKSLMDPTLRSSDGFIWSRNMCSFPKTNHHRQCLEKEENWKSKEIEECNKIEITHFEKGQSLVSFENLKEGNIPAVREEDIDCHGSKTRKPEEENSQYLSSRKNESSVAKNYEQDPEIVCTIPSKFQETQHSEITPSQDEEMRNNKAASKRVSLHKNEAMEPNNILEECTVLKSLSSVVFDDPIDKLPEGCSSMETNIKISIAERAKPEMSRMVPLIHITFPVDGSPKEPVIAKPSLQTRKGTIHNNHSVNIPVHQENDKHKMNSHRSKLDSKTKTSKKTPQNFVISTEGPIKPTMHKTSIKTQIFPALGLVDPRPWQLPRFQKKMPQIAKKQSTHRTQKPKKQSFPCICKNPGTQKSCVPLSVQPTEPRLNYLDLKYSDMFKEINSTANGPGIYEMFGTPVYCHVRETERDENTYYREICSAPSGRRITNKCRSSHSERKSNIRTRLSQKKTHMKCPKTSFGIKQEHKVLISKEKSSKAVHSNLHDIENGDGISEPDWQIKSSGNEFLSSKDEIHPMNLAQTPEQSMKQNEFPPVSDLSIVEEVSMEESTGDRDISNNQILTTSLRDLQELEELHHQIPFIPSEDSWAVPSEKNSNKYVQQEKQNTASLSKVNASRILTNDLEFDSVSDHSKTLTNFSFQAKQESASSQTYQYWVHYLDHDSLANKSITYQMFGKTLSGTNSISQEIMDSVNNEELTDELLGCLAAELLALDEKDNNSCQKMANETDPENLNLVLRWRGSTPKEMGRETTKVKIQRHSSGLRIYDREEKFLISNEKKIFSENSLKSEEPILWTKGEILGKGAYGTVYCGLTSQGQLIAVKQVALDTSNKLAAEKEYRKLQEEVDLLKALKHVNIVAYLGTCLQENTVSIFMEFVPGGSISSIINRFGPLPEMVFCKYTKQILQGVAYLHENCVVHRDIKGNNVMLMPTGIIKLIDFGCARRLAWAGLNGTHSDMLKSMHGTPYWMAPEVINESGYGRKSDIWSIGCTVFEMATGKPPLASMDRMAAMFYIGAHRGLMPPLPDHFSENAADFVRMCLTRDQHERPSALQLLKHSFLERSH
Sequence of UniProt P29597 (whole entry, looked up): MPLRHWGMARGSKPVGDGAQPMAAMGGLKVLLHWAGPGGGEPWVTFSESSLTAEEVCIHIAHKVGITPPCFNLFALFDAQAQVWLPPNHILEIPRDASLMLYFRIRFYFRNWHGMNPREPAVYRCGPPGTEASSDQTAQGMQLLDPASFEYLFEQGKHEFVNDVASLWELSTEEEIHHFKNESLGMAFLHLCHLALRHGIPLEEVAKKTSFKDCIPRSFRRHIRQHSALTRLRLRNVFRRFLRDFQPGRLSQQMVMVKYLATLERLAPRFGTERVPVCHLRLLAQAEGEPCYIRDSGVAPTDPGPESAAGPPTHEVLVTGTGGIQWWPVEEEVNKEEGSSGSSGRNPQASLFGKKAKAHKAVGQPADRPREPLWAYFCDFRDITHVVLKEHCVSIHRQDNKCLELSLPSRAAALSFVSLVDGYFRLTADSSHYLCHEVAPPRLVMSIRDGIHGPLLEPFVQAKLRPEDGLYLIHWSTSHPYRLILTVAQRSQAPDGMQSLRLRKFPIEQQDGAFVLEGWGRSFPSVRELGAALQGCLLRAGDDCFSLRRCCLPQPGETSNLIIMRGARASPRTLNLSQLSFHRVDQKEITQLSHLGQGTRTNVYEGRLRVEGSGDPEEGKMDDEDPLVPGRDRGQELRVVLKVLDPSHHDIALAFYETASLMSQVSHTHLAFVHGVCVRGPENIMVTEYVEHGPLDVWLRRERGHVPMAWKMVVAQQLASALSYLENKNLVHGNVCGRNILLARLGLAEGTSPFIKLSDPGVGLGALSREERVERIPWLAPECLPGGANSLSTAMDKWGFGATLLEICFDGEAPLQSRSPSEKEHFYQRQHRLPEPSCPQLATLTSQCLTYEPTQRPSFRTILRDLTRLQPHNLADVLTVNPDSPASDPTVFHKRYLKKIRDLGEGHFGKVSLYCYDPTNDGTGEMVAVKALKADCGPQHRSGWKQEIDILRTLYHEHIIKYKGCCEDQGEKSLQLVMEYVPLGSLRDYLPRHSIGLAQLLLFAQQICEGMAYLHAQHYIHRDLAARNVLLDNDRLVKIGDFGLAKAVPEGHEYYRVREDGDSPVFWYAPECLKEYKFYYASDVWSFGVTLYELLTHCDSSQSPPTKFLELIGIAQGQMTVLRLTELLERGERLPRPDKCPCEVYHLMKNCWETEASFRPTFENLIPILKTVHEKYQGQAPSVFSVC
Sequence of UniProt Q14680 (whole entry, looked up): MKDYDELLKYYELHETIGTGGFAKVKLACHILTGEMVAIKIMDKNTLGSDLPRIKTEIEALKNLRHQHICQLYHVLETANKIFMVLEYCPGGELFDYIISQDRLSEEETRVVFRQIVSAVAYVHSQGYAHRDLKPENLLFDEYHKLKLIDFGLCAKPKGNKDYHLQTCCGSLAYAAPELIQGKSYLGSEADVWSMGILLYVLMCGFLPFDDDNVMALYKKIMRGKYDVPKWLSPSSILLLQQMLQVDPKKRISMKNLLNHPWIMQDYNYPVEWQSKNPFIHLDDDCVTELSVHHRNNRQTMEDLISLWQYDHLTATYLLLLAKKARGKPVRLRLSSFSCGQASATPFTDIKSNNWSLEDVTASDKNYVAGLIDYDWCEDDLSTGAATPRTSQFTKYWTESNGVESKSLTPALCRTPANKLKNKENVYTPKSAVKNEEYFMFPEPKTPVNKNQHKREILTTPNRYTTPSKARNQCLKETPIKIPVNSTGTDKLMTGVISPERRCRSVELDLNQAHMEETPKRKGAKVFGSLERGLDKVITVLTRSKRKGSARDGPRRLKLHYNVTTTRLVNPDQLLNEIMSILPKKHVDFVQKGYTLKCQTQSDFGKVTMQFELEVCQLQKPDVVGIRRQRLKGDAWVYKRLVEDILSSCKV
Sequence of UniProt Q8TF76 (whole entry, looked up): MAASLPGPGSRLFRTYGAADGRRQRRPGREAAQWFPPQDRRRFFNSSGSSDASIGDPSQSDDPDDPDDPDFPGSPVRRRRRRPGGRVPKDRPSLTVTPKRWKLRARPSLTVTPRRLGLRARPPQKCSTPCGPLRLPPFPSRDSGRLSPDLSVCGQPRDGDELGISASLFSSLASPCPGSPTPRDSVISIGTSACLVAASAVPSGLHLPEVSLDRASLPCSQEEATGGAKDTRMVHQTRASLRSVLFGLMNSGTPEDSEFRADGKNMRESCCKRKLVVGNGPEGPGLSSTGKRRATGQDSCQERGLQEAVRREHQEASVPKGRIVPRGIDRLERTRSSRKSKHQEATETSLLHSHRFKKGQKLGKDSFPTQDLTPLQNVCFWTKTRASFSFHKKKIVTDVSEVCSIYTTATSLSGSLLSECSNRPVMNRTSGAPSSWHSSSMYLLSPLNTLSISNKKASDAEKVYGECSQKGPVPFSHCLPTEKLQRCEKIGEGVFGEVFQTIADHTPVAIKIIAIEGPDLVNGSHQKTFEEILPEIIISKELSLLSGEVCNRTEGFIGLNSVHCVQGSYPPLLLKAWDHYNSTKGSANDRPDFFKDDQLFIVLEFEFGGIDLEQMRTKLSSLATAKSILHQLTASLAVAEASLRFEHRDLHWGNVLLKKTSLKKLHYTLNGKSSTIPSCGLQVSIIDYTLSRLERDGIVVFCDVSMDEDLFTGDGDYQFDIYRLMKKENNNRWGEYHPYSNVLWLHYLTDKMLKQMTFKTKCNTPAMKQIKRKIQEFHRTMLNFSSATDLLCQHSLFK
Sequence of UniProt P48730 (whole entry, looked up): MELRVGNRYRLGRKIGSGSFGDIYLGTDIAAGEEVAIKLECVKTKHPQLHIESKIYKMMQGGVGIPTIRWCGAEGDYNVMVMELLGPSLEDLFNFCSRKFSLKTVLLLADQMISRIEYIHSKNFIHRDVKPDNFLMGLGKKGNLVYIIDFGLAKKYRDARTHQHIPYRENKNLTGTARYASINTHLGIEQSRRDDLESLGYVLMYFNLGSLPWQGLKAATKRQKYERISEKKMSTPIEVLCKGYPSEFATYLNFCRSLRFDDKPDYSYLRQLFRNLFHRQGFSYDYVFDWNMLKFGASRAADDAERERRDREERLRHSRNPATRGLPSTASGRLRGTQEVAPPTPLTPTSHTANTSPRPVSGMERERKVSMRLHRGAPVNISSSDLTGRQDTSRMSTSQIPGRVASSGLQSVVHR

Block 1
Organism: Sarcocystis neurona
Read-out: parasite activity
Concentration: 10 µM
Time: 96 h
Quantity: activity class
CN(C)CCC[C@@]1(c2ccc(F)cc2)OCc2cc(C#N)ccc21: inactive
Cc1ccc(N(CC2=NCCN2)c2cccc(O)c2)cc1: inactive
OCc1cc(C(O)CNCCCCCCOCCCCc2ccccc2)ccc1O (centres unmarked): inactive
COc1cc(C)c(Cc2cnc(N)nc2N)cc1OC: inactive
CCN(CC)CC1CCCCN1CC(=O)N1c2ccccc2C(=O)Nc2cccnc21 (centres unmarked): inactive
CC(Oc1c(Cl)cccc1Cl)C1=NCCN1 (centres unmarked): inactive
COc1c2occc2cc2ccc(=O)oc12: inactive
COc1cc2nc(N3CCN(C(=O)C4CCCO4)CC3)nc(N)c2cc1OC (centres unmarked): inactive
CC(C(=O)O)c1ccc(CC2CCCC2=O)cc1 (centres unmarked): inactive
O=c1c(O[C@@H]2O[C@H](CO)[C@@H](O)[C@H](O)[C@H]2O)c(-c2ccc(O)c(O)c2)oc2cc(O)cc(O)c12: inactive
C[C@H](CCC(=O)O)[C@H]1CC[C@H]2[C@@H]3C(=O)C[C@@H]4CC(=O)CC[C@]4(C)[C@H]3CC(=O)[C@]12C: inactive
Cc1ccnc2c1NC(=O)c1cccnc1N2C1CC1: inactive
Cc1cnc(C(=O)NCCc2ccc(S(=O)(=O)NC(=O)NC3CCCCC3)cc2)cn1: inactive
Oc1ccc(/C=C/c2cc(O)cc(O)c2)cc1: inactive
COCc1c(C(C)C)nc(C(C)C)c(/C=C/[C@@H](O)C[C@@H](O)CC(=O)O)c1-c1ccc(F)cc1: inactive
CCN1CCC[C@H]1CNC(=O)c1c(O)c(Cl)cc(Cl)c1OC: inactive
C[C@](N)(Cc1ccc(O)c(O)c1)C(=O)O: inactive
CN(C)CCC=C1c2ccccc2CCc2ccccc21: inactive
CC(C)[C@H]1CC[C@H](C(=O)N[C@H](Cc2ccccc2)C(=O)O)CC1: inactive
CN1CCN(CCCN2c3ccccc3Sc3ccc(Cl)cc32)CC1: inactive
C#C[C@]1(O)CC[C@H]2[C@@H]3CCc4cc(O)ccc4[C@H]3CC[C@@]21C: inactive
CC(C)c1nc(CN(C)C(=O)N[C@H](C(=O)N[C@@H](Cc2ccccc2)C[C@H](O)[C@H](Cc2ccccc2)NC(=O)OCc2cncs2)C(C)C)cs1: inactive
COCCCOc1ccnc(C[S+]([O-])c2nc3ccccc3[nH]2)c1C (centres unmarked): inactive
C[C@H]1C[C@@H]2[C@H]([C@@H](O)C[C@@]3(C)[C@H]2CC[C@]3(O)C(=O)CO)[C@@]2(C)C=CC(=O)C=C12: inactive
NC1CCN(c2nc3c(cc2F)c(=O)c(C(=O)O)cn3-c2ccc(F)cc2F)C1 (centres unmarked): inactive

Block 2
Species: human
Matrix: microsomes or S9
Concentration: 2 µM
Time: 0.5 h
Quantity: remaining compound
Cc1noc(C)c1CN1CCn2c1nc(-c1ccccc1)cc2=O: 9.96%
Clc1ccc(Nc2ccc(-n3ccnc3)nn2)cc1: 67.5%
CC(Cn1cc(Br)cn1)c1nc2c3cnn(C)c3ncn2n1 (centres unmarked): 76.7%
CC1CCCN(c2ncc(CN(Cc3ccccc3)C3CCN(C)CC3)cn2)C1 (centres unmarked): 2.2%
CCOC1CC(N(C)C(=O)Nc2c(C)noc2C)C12CCCC2 (centres unmarked): 8.45%
Cc1ccc(NC(=O)N2Cc3c(sc4c3CCCC4)-n3cccc3C2c2cccs2)cc1Cl (centres unmarked): 34.9%
COc1ccc(C)cc1C1=CC(C)(c2cc(C)ccc2OC)Nc2nnnn21 (centres unmarked): 14.9%
Cc1nc2c(c(=O)n1C)CN(C(=O)[C@@H]1CCCN1C1CCN(C)CC1)C2: 90.9%
O=C(NC1CCN(Cc2ccc(OC3CCNCC3)c(Br)c2)CC1)c1ccc(-c2ccccc2)o1: > 100%
CCOc1cc(CNC(C)c2ccccc2)ccc1OCC(C)C (centres unmarked): 55.5%
Clc1ccc(C2=NOC(COc3cccc(Cl)c3Cl)CC2n2cncn2)cc1 (centres unmarked): 74%
Cn1ncc2c(NNC(=O)c3ccc(O)cc3)ncnc21: 87.3%
COc1ccc(CN2C(=O)N[C@@H](CC(=O)Nc3nc(C(C)(C)C)cs3)C2=O)cc1OC: 4.37%

Block 3
Target: Tyrosine-protein kinase HCK (HCK, Homo sapiens, UniProt P08631)
Sequence of UniProt P08631 (whole entry, looked up): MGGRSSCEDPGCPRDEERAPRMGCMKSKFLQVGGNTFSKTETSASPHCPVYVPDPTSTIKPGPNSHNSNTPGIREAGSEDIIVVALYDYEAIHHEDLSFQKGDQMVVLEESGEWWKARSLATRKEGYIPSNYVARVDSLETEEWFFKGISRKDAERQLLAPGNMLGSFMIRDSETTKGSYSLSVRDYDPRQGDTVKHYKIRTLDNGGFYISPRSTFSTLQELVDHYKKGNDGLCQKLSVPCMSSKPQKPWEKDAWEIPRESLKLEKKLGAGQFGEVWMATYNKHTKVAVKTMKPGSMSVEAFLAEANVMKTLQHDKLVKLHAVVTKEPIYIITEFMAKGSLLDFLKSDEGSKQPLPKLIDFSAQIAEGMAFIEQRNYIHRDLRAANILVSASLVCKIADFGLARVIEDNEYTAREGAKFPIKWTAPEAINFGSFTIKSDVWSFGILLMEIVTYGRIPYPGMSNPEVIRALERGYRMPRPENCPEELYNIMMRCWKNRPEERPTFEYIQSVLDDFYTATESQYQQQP
Read-out: enzyme activity
Action: inhibitor
Concentration: 0.5 µM
Relative to: control
Quantity: remaining activity
Nc1ncnc2c1cnn2-c1ccccc1: 92.4%
O=C1NC(=O)C(c2c[nH]c3ccccc23)=C1c1c[nH]c2ccccc12: 96%
Nc1nc(Nc2ccc(S(N)(=O)=O)cc2)nn1C(=O)c1c(F)cccc1F: 86.2%
CSc1nc(-c2ccnc(N[C@@H](C)c3ccccc3)c2)c(-c2ccc(F)cc2)[nH]1 (racemic): 83.5%
CC(=O)c1ccc(N2CCOCC2)cc1O: 116%
COc1ccc(S(=O)(=O)N(CCO)c2ccccc2CN(C)CC=Cc2ccc(Cl)cc2)cc1: 97.8%
O=C1Cc2c([nH]c3ccc([N+](=O)[O-])cc23)-c2ccccc2N1: 71.8%

Block 4
SMILES: O=C(NS(=O)(=O)c1ccc(NCC2CCOCC2)c([N+](=O)[O-])c1)c1ccc(N2CCN(Cc3ccc(C(F)(F)F)cc3-c3ccc(Cl)cc3)CC2)cc1Oc1cnc2[nH]ccc2c1
Read-out: cell-free assay
Method: competition with immobilised ligand
Concentration: 1 µM
Quantity: remaining binding
Glycogen synthase kinase-3 beta (GSK3B, Homo sapiens, UniProt P49841): 100%
Casein kinase I isoform delta (CSNK1D, Homo sapiens, UniProt P48730): 80%
Serine/threonine-protein kinase 36 (STK36, Homo sapiens, UniProt Q9NRP7): 88%
Epidermal growth factor receptor (EGFR, Homo sapiens, UniProt P00533, T790M): 98%
Mitogen-activated protein kinase kinase kinase 19 (MAP3K19, Homo sapiens, UniProt Q56UN5): 71%
Myosin light chain kinase family member 4 (MYLK4, Homo sapiens, UniProt Q86YV6): 100%
Maternal embryonic leucine zipper kinase (MELK, Homo sapiens, UniProt Q14680): 73%
Mitogen-activated protein kinase kinase kinase kinase 2 (MAP4K2, Homo sapiens, UniProt Q12851): 76%
Serine/threonine-protein kinase haspin (HASPIN, Homo sapiens, UniProt Q8TF76): 85%
Non-receptor tyrosine-protein kinase TYK2, JH1 (TYK2, Homo sapiens, UniProt P29597): 84%
Tyrosine-protein kinase HCK (HCK, Homo sapiens, UniProt P08631): 99%

For quick reference, copied from above (block 2):
COc1ccc(CN2C(=O)N[C@@H](CC(=O)Nc3nc(C(C)(C)C)cs3)C2=O)cc1OC: 4.37%
O=C(NC1CCN(Cc2ccc(OC3CCNCC3)c(Br)c2)CC1)c1ccc(-c2ccccc2)o1: > 100%
COc1ccc(C)cc1C1=CC(C)(c2cc(C)ccc2OC)Nc2nnnn21 (centres unmarked): 14.9%
Cc1nc2c(c(=O)n1C)CN(C(=O)[C@@H]1CCCN1C1CCN(C)CC1)C2: 90.9%
Cn1ncc2c(NNC(=O)c3ccc(O)cc3)ncnc21: 87.3%
Clc1ccc(Nc2ccc(-n3ccnc3)nn2)cc1: 67.5%
CC(Cn1cc(Br)cn1)c1nc2c3cnn(C)c3ncn2n1 (centres unmarked): 76.7%
CCOc1cc(CNC(C)c2ccccc2)ccc1OCC(C)C (centres unmarked): 55.5%
